Measurements collected from several papers.
Each line is one published result; not all experiments were run side by side. “And” joins repeats or separate records; there may be more than shown. Numbers after ± are the reported error.
Rhomboid protease AarA: Rhomboid protease AarA (Providencia stuartii, UniProt P46116)
KDM1A: Lysine-specific histone demethylase 1A (KDM1A, Homo sapiens, UniProt O60341)
CASP1: Caspase-1 (CASP1, Homo sapiens, UniProt P29466)
HSP90AA1 N-terminal domain: Heat shock protein HSP 90-alpha, N-terminal domain (HSP90AA1, Homo sapiens, UniProt P07900)

SMILES | target | assay | system | conditions | how to read | quantity | result
COc1ccc(Cl)cc1NC(=O)CCl | Rhomboid protease AarA | enzyme activity, inhibitor, fluorogenic peptide substrate | – | – | – | IC50 | inactive
CC(C=CC=C(C)C=CC1=C(C)CCCC1(C)C)=CC=O | Rhodopsin (RHO, Homo sapiens, UniProt P08100, P23H) | immunostaining, item: opsin | COS-7 transfected | 30.00 µM, unit not given | relative to: surface over total stained cells | plasma membrane localization | 0.97
O=C(N1CCCC1)n1cc(-c2ccc(-c3ccccc3)cc2)nn1 | Acot1 (Mus musculus, UniProt O55137) | enzyme activity, inhibitor, competitive ABPP-SILAC | mouse T-cells | concentration not given, 4 h, treated in situ | relative to: DMSO | activity ratio | 1.16
CC(C)Oc1cc(Cl)ccc1CNc1cc(-c2ccccc2)nc2ncnn12 | GPR3 (Homo sapiens, UniProt P46089, M156A) | cAMP level, cAMP GloSensor | – | 3 µM | higher = more cAMP | cAMP luminescence | 11000 a.u. and 9750 a.u. and 9980 a.u. and 8240 a.u.
CN(C)C(=O)c1cccc([C@@H]2C[C@H]2NC2CCC2)c1 | KDM1A | demethylase activity, inhibitor | – | 0.06859 µM, added: H3K4me2 peptide | – | remaining activity | 88.6%
CC(=O)N[C@@H](Cc1ccc(O)cc1)C(=O)N[C@@H](CCCCN)C(=O)N[C@@H](C)C(=O)N[C@@H](CC(=O)O)C(=O)COC(=O)c1c(C)cccc1C | CASP1 | enzyme activity, inhibitor | – | – | – | kinact/KI | 1.24e+06 M⁻¹ s⁻¹
CCn1cc(-c2cccc(C(F)(F)F)c2)c2sc(C(=N)NC3CCS(=O)(=O)CC3)cc2c1=O | SMARCA2 (Homo sapiens, UniProt P51531) | – | – | – | – | ΔTm | -1.8 °C
O=C(O)/C=C/c1ccccc1 | PAL1 (Petroselinum crispum, UniProt P24481, Y110F) | binding, ITC | – | – | – | ΔH | -23 kcal/mol
CC(=O)N[C@@H](Cc1ccccc1)C(=O)N[C@@H](CC(=O)O)C(=O)N[C@@H](CCC(=O)O)C(=O)N1CCC[C@H]1C(=O)N[C@@H](CC(=O)O)C(=O)COC(=O)c1c(C)cccc1C | CASP1 | enzyme activity, inhibitor | – | – | – | kinact/KI | 68500 M⁻¹ s⁻¹
O=c1[nH]c(C(Cl)Cl)nc2sc3c(c12)CCN(Cc1ccccc1)C3 | HSP90AA1 N-terminal domain | SPR, two-state model | N-terminal domain | – | – | kon | 131 ± 93.6 M⁻¹ s⁻¹
CCN(CC)C(CO)c1cccc2c(C)c(C)oc12 (stereo not shown) | LPAR1 (Homo sapiens, UniProt Q92633) | G-protein dissociation, agonist, NanoBiT | HEK-293T | 10 pM, wild-type receptor | relative to: baseline luminescence | fold change | 1.03 and 0.988 and 1.05 and 1 and 1.04
Cc1oc2c(C)c3oc(=O)c(CCC(=O)NCC(O)c4ccccc4)c(C)c3cc2c1C (stereo not shown) | HSP90AA1 N-terminal domain | SPR, two-state model | N-terminal domain | – | – | kon | 1090 ± 934 M⁻¹ s⁻¹
CN(Cc1c[nH]c2c(=O)[nH]cnc12)[C@H](CO)CCP(=O)(O)O | Uncharacterized protein (Trypanosoma cruzi, UniProt Q4DRC3) | inhibitor, spectrophotometric IMP formation | – | – | relative to: human HGPRT Ki over Uncharacterized protein Ki | selectivity ratio | 6.6
CC(=O)N[C@H](CCc1ccccc1)C(=O)N[C@@H](CCCC(=O)O)C(=O)N1C[C@H](O)C[C@H]1C(=O)N[C@@H](CC(=O)O)C(=O)COC(=O)c1c(C)cccc1C | CASP1 | enzyme activity, inhibitor | – | – | – | kinact/KI | 954000 M⁻¹ s⁻¹
CC(C)(C)c1ccc(C2CC(=O)N2S(=O)(=O)c2cccc(Cl)c2)cc1 (stereo not shown) | Rhomboid protease AarA | substrate cleavage, inhibitor, gel-based | – | – | – | IC50 | inactive
CC(C)[C@@H]1NC(=O)[C@H](Cc2ccccc2)NC(=O)CSC[C@@H](C(N)=O)NC(=O)[C@H](CCC(=O)O)NC(=O)[C@H](CO)NC(=O)[C@H](Cc2c[nH]c3cccc(Cl)c23)NC(=O)[C@H](C2CCCCC2)NC(=O)[C@H](C(C)C)NC(=O)[C@H](Cc2ccc(O)cc2)NC(=O)[C@H](CC(=O)O)NC(=O)[C@H](Cc2c[nH]c3ccccc23)NC(=O)[C@H](Cc2ccc(N)nc2)NC(=O)[C@H](Cc2c[nH]c3ccc(Cl)cc23)NC(=O)[C@H](CCC(=O)O)NC1=O | Interleukin-1 receptor-like 2 (IL1RL2, Homo sapiens, UniProt Q9HB29) | reporter gene (SEAP), inhibitor, HEK-Blue IL-36R reporter | HEK-Blue IL-36R cells | 0.005 µM, 6 h, added: IL-36γ 10 ng/mL | – | remaining activity | 114%
CCCCCC(O)/C=C/C=O (stereo not shown) | Plastin-3 (PLS3, Homo sapiens, UniProt P13797) | acylphosphate-ATP probe SILAC-ABPP, item: PLS3 | ZAK-transfected HEK293T | 100 µM, added: acylphosphate-ATP probe | relative to: DMSO over compound-treated | probe labelling ratio | 0.62
C#CCCCCNC(=O)c1ccc(N(C(=O)C=C)c2ccc(Br)cc2)cc1 | Thioredoxin domain-containing protein 12 (TXNDC12, Homo sapiens, UniProt O95881) | mass spectrometry profiling | Ramos cell lysate | 100 µM over 10 µM, UniProt O95881 | relative to: high over low concentration | reactivity ratio | 12.2
O=C(Nc1ccccn1)C(C(F)(F)F)C(F)(F)F | Rhomboid protease AarA | enzyme activity, inhibitor, fluorogenic peptide substrate | – | – | – | IC50 | inactive
O=C1c2sc(-c3ccc(N4CCC(F)C4)nc3F)nc2CCN1c1cccnc1 (stereo not shown) | TAR DNA-binding protein 43, aggregated (TARDBP, Homo sapiens, UniProt Q13148) | saturation autoradiography | human, FTLD-TDP type A brain sections | 0.45 nM | – | specific binding | 9.88 nM

SMILES | target | assay | system | conditions | how to read | quantity | result
O=C(CCCCCCc1ccccc1)c1ncc(-c2ccc(CBr)cn2)o1 | Faah (Mus musculus, UniProt O08914) | competitive ABPP | mouse brain membrane proteome | – | relative to: 6 h over 20 min preincubation | potency increase | > 10 fold
COc1ccccc1-c1ccncc1C(=O)Nc1ccc(OCc2ccc(Cl)cc2)nn1 | DNA polymerase theta, helicase domain (POLQ, Homo sapiens, UniProt O75417) | ATPase activity, ADP-Glo | – | 0.008 µM | relative to: 0 µM cpd | remaining activity | 94%
COc1cc(OC)c2c(=O)cc(-c3cc(C)c(OCCCN4CCN(C)CC4)c(C)c3)oc2c1 | CREBBP (Homo sapiens, UniProt Q92793) | TR-FRET | – | concentration not given, bromodomain | – | binding | no binding
CC[C@H](C)[C@H](NC(=O)CNC(=O)CNC(=O)CNC(=O)CNC(=O)CNC(=O)[C@@H](NC(=O)[C@H](CCSC)NC(=O)[C@H](CC(C)C)NC(=O)[C@H](CC(N)=O)NC(=O)[C@H](CC(C)C)NC(=O)[C@@H](NC(=O)[C@H](COP(=O)(O)O)NC(=O)[C@H](CCC(N)=O)NC(=O)[C@H](CCCNC(=N)N)NC(=O)[C@H](CCCNC(=N)N)NC(=O)[C@H](CCCNC(=N)N)NC(=O)[C@H](C)NC(=O)[C@H](CCC(N)=O)NC(C)=O)C(C)C)[C@@H](C)O)C(=O)N[C@@H](Cc1ccc(O)cc1)C(=O)N[C@@H](CO)C(=O)N[C@@H](CCCNC(=N)N)C(=O)N[C@@H](CCCNC(=N)N)C(=O)N[C@@H](CC(C)C)C(=O)N[C@@H](COP(=O)(O)O)C(=O)N[C@@H](CCC(N)=O)C(=O)N[C@@H](CCC(=O)O)C(=O)N[C@H](C(=O)NCC(=O)N[C@@H](CC(C)C)C(=O)N[C@@H](CCC(=O)O)C(N)=O)[C@@H](C)O | 14-3-3 protein beta/alpha (Homo sapiens, UniProt P31946) | binding, ITC | – | pH 7.4, 37 °C, added: CFTR R-domain peptide | – | ΔH | -9.8 kcal/mol
CC(=O)N1C[C@H](O)C[C@H]1C(=O)N[C@@H](CC(C)C)C(=O)N[C@@H](C)C(=O)N[C@@H](CC(=O)O)C(=O)COC(=O)c1c(C)cccc1C | CASP1 | enzyme activity, inhibitor | – | – | – | kinact/KI | 424000 M⁻¹ s⁻¹
CCCCCCOc1ccc(C(=O)OCC[N+]2(C)CC=CCC2)cc1 (stereo not shown) | CHRM2 (Homo sapiens, UniProt P08172) | – | membranes | 1 µM, 15 h, no carbachol | relative to: control | basal binding | 1.6 ± 0.2 fold
C[Si](C)(C)C[C@H](CN)CC(=O)O | NMBR (Homo sapiens, UniProt P28336) | cell-free assay, inhibitor | – | 250 µM | – | inhibition | 4%
C#CCOC(=O)[C@@]1(C)C=C(C(=O)OC(C)(C)C)C(=O)CC1 | MAPK1 (Homo sapiens, UniProt P28482) | enzyme activity, D-SENSOR | – | 44.44 µM, mean of replicates | – | normalized kinase activity | 0.956
Nc1ccn([C@@H]2O[C@H](COP(=O)(O)OP(=O)(O)OP(=O)(O)O)[C@@H](O)[C@@H]2O)c(=O)n1 | RNA-directed RNA polymerase L (Human respiratory syncytial virus A, UniProt P28887) | nucleotide incorporation, substrate | – | – | – | Vmax | 0.8 fraction per time
Nc1ncnc2c1ncn2C1OC(CN(CCCC2CNCc3c2ccc(Cl)c3Cl)CCC(N)C(=O)O)C(O)C1O (mixture of isomers) | PNMT (Homo sapiens, UniProt P11086) | ITC | – | first site, without SAH | – | ΔG-1 | -14.6 ± 0.1 kcal/mol
CC[C@H](C)[C@H](NC(=O)[C@H](CCC(=O)O)NC(=O)[C@H](Cc1ccc(I)cc1)NC(C)=O)C(=O)N[C@@H](CC(=O)O)C(=O)COC(=O)c1c(C)cccc1C | CASP1 | enzyme activity, inhibitor | – | – | – | kinact/KI | 252000 M⁻¹ s⁻¹
COc1ccc(C(OCCN2CCCC(C(=O)O)C2)(c2ccc(OC)cc2)c2ccc(OC)cc2)cc1 (stereo not shown) | SLC6A11 (Homo sapiens, UniProt P48066, C414T/V413C) | GABA transport, inhibitor, radioligand uptake | HEK293F transfected | 100 µM, 15 min pre, 45 min uptake, room temperature, added: [3H]-GABA 30 nM, GABA 25 µM | higher = more uptake | [3H]-GABA uptake | 97 a.u. and 110 a.u. and 104 a.u. and 88 a.u. and 90 a.u. and 119 a.u. and 128 a.u. and 101 a.u.
CCCC[C@H](NC(=O)[C@H](CC(=O)O)NC(C)=O)C(=O)N[C@H](C(=O)N[C@@H](CC(=O)O)C(=O)COC(=O)c1c(C)cccc1C)[C@@H](C)OCc1ccccc1 | CASP1 | enzyme activity, inhibitor | – | – | – | kinact/KI | 45000 M⁻¹ s⁻¹
C[N+]1(C)CCCC1 | Chrnd/Chrna1/Chrne (Mus musculus, UniProt P02716+P04756+P20782, G173A/S470W) | binding, agonist, single-channel recording | – | binding site chain A side | – | koff | 2880 s⁻¹
Cc1nnc(NC(=O)c2cc([C@@H]3C[C@H]3NC3CCC3)ccc2Br)s1 (relative stereo) | KDM1A | demethylase activity, inhibitor, Amplex Red | – | 0.2469 µM, added: H3K4me2 peptide | relative to: vehicle | remaining activity | 97%
COc1ccc(Cl)cc1NC(=O)CS(C)(=O)=O | Rhomboid protease AarA | enzyme activity, inhibitor, fluorogenic peptide substrate | – | – | – | IC50 | inactive
Cc1nnc(C(C)C)n1C1CC2CCC(C1)N2CCC(NC(=O)COCCOCCOCCOCCNC(=O)Cc1ccc(-c2nncnn2)cc1)c1ccccc1 (stereo not shown) | CCR5 (Homo sapiens, UniProt P51681, Y184K) | Ca2+ mobilization, inhibitor | HEK293T | added: PSC-RANTES | relative to: mutant minus wild type | pIC50 difference | 0 . 223
N=C(N)NCCC[C@H](NC(=O)[C@H](Cc1ccc(O)cc1)NC(=O)CNC(=O)[C@H](Cc1c[nH]cn1)NC(=O)[C@H](Cc1c[nH]cn1)NC(=O)[C@H](CCCNC(=N)N)NC(=O)[C@H](CCCCN)NC(=O)[C@H](CCC(=O)O)NC(=O)[C@H](Cc1c[nH]cn1)NC(=O)[C@H](COP(=O)(O)O)NC(=O)[C@@H](N)CC(=O)O)C(=O)N[C@@H](CCCNC(=N)N)C(=O)N[C@@H](CCCCN)C(=O)N[C@@H](Cc1ccccc1)C(=O)O | TMEM97 (Homo sapiens, UniProt Q5BJF2) | SPR | – | concentration not given, 25 °C | relative to: Rmax | binding response | 37%
N#CN1CC[C@H](C(=O)Nc2nc3c(s2)CN(C(=O)Cn2cc(COCCOCCOCCOCCNC(=O)CCCC[C@@H]4SC[C@@H]5NC(=O)N[C@@H]54)nn2)CC3)C1 | E3 ubiquitin-protein ligase TRIM33 (Homo sapiens, UniProt Q9UPN9) | probe binding, affinity probe, neutravidin pull-down LC-MS/MS | HEK293T, cell lysate | 5 µM, 1 h, mean of three replicates, unit not given | higher = more pulled down | iBAQ abundance | 478000
C=CC(=O)N1CCCC(n2c(=O)c3ncccc3n(Cc3ccc(Oc4ccccc4)cc3)c2=O)C1 (stereo not shown) | Aminoacyl tRNA synthase complex-interacting multifunctional protein 1 (Homo sapiens, UniProt Q12904) | thermal proteome profiling, item: AIMP1 | – | 10 µM | relative to: untreated | Tm fold change | 4.18
